Measured values from different studies.
Each numbered part is a random draw from the data of one study; scales do not carry over between parts. Positions count from the first letter of the parent shown.

Series 1
Target: RING finger protein unkempt homolog, zinc fingers 1-6, SBP tag (UNK, Homo sapiens, UniProt Q9C0B0, residues 30-357)
UniProt Q9C0B0, sequence (30-357, looked up): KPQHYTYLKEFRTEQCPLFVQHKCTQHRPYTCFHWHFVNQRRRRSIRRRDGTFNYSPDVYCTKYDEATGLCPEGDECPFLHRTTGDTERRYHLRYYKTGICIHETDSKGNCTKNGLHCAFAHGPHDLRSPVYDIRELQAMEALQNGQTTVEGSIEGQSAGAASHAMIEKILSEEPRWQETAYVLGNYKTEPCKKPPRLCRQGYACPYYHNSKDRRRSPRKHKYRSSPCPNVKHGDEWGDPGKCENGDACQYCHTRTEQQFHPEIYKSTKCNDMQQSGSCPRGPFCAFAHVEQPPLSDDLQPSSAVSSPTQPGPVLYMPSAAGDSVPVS
Technique: RNA Bind-n-Seq
Form: RNA
Medium: in vitro
Tested at: 100 nM
Notes: RNA with constant flanks, vertebrate orthologous sites, ends assumed
Reference: input RNA pool
Reading: higher = stronger binding
With `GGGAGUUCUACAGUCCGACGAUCUACCUGUGUACAUUUCAUUCACAACACUGAAUGCAAAGUAGCGAUUUCCAUAGUCACAAAAUAAUGUAGCUUUAGGGCGAUAUCACCAUGGGUUUUACUCAUGUGCAGGUCUCGAAAAUGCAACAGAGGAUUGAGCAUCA` the bound/input enrichment was 0.603 ratio.
`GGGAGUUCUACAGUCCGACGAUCCUGUAAACAGCUCAGGGCAGUAUCCUCCCUAUCCUCCAUACGGCAACCUUAAUCAGGGAUUAGCCAACACUUCAGGGAUGAGUCCCAACAUGAGCCUUACCACCAGCAGCAACAGCAACCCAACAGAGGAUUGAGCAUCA` has a bound/input enrichment of 0.284 ratio.
The bound/input enrichment of `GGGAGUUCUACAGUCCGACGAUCGUCCUUUCACACUGUCCCUGGCCAGGUUCGAGGACUGGAGACUUCACUGAGGACCCACAUUUCAGUUUUCUACAUCGUUGUCCAGAAAGAGAUGUGACUGAAAUGGUCGAGUGUCUCUUUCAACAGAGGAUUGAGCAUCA` is reported as 0.294 ratio.
With `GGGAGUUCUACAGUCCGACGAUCAUCCUUUUGGAGUGUCCCUGGCCAGGACCAAGAACCAGACAUUUCAUGGAGGACCUGUACUUAAAAGGCUUUUUUAAACAGCCGUACAGGAGGUGUCACCUCGCAGGCGAGCGGACUUCUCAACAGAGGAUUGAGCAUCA` the bound/input enrichment was 0.26 ratio.
For `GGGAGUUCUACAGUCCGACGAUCAAAUUUAUUUCAUGCCCUGGACUCCCUAUCGUACUGAUACUUUAAUAGAAUAUGCUUCCUUAGAAGAUUUCCAAAAUAGUCGCCAAACGACGACAUACAAACUUCCAAAUCGAGUAGAUGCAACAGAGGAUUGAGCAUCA`, the bound/input enrichment was 1.34 ratio.
`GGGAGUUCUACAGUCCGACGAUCCGUCCUUACCUACUGCCCCCGGCCAGGGCCAAGGGCCAGAUGUCUCACUGAGGACCUGCUUUUAAAACAUUUUUUAAGUCGUUGUACAGGAAGAGGUGUGUCUAAAGAGCAUCUCAAGGUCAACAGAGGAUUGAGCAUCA` gave a bound/input enrichment of 0.506 ratio.
With `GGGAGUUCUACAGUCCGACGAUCCGAGAUUUUGUAAAAGAACAAGGCUUUGGGGAAAUGAGUUUUUUGCGUUUUGUAUUUAAAUAGGAUACUUUUAUAUGAUGGGUGCUUUUGAGUGUGAGUGCAGCCGGGCCUCCAUUUGGGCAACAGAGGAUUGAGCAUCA` the bound/input enrichment was 0.799 ratio.
For `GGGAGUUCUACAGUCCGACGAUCGCGAAAGGCCAGAUCCCCUCUGCCCUGCUACUGCUUCUACCAACCGGAAGCACAGAAAACUAGAAUCUCAUUGAUUUUGUUUUUAAAAAUACGUUGAUUUCUUGUAACAUCCAAUAGGAACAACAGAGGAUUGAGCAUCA`, the bound/input enrichment was 0.261 ratio.

Series 2
Target: Interferon regulatory factor 5, full length, phosphomimetic (IRF5, Homo sapiens, UniProt Q13568-2, residues 1-514, K96S/S451D/S453D/S456D/S462D)
Technique: protein-binding microarray
Form: double-stranded DNA, one strand shown
Medium: in vitro
Tested at: 250 nM
Notes: 60-bp whole probe
With: salmon DNA 0.4 mg/ml
Reference: random background probes
Reading: higher = stronger binding
Shared flanks, not repeated: GCCTAGCAC … GTCTTGATTCGCTTGACGCTGCTG
With `TTAGATATCAGTATCGATTCGTGCTAG` the log fluorescence was 7.05 z-score.
With `TCAATTTTCAGAATTTAACTGTGCTAG` the log fluorescence was 1.26 z-score.
The log fluorescence of `GAATCTCCCATTATATTTTAGTGCTAG` is reported as 0.533 z-score.
`TTAGGTTTCGGCTCCGGTTAGTGCTAG` gave a log fluorescence of 7.25 z-score.
With `TCATGTATGAGCCTCTGACTGTGCTAG` the log fluorescence was -0.178 z-score.
`TTAGAACTGAGTTTCGAGTAGTGCTAG` has a log fluorescence of 5.92 z-score.
For `TCATCTTTCCCTGCCCCACTGTGCTAG`, the log fluorescence was 0.565 z-score.
`TTAGATCTGAGTCTCGATTAGTGCTAG` has a log fluorescence of 0.692 z-score.
With `TTAGATCTCAGGCTCGATTAGTGCTAG` the log fluorescence was -0.333 z-score.
`TTAGGCTTCGGGTTTCGGTTAGTGCTA` gave a log fluorescence of 7.17 z-score.
With `TTGCCTCTGCTGCTGGCCGCGTGCTAG` the log fluorescence was -0.466 z-score.
For `GACGGTCTCGGTAACGGGACGTGCTAG`, the log fluorescence was 0.261 z-score.
The log fluorescence of `GACGATATCAGTCTCAAGACGTGCTAG` is reported as 1.22 z-score.
With `GACTGTTTCGGTATCGGGACGTGCTAG` the log fluorescence was 9.96 z-score.
With `TTAGGTTTTGGTATCGGTTAGTGCTAG` the log fluorescence was 8.43 z-score.
`GAAGGTTTCGGACTGGGGACGTGCTAG` has a log fluorescence of 3.44 z-score.
The log fluorescence of `GACCGTATCGGTCTCGGGACGTGCTAG` is reported as 5.19 z-score.
`GTCGATATCAGACTGGAGACGTGCTAG` gave a log fluorescence of 1.14 z-score.
For `TCATTTTTCTGATTGAAACTGTGCTAG`, the log fluorescence was 1.58 z-score.

Series 3
Target: Histone acetyltransferase KAT6A, winged helix 1, GST fusion (KAT6A, Homo sapiens, UniProt Q92794, residues 1-85)
Technique: protein binding microarray
Form: double-stranded DNA, one strand shown
Medium: in vitro
Tested at: not given
Notes: 8-mer, flanks averaged, mean of 2 arrays, mostly near background
Reference: not given
Reading: higher = stronger binding
Construct (chain): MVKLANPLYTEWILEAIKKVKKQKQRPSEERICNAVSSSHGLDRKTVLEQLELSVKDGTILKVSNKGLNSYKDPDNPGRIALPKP
With `CAGAATGG` the E-score was -0.315.
For `GGCACCCA`, the E-score was -0.00821.
For `CAGACCCC`, the E-score was -0.0956.
The E-score of `CGCCCGAA` is reported as 0.0824.
`CAGTAACG` has an E-score of 0.144.
For `CCGTATCA`, the E-score was 0.253.
For `ACGTCAAA`, the E-score was -0.0172.
For `CGCCCACC`, the E-score was -0.0724.
`CACGTGGC` has an E-score of -0.0331.
The E-score of `GGCGAATA` is reported as 0.17.
`CCAGCGTA` gave an E-score of 0.0948.
For `AACTAATC`, the E-score was -0.0976.
The E-score of `GGAAATAA` is reported as -0.131.
`GGTGCGAC` has an E-score of 0.267.
For `AGGTCCAA`, the E-score was -0.167.
The E-score of `GCTTTCCA` is reported as -0.0583.
`ACTTCGAG` has an E-score of -0.166.
With `CGCTCTCA` the E-score was 0.0733.
With `ACCCGCCC` the E-score was 0.335.
`GCGAAGAA` gave an E-score of -0.103.
With `GCGTGGTA` the E-score was 0.209.
`ATGCCCAA` gave an E-score of -0.185.
`GTAGCCAA` gave an E-score of -0.148.

Series 4
Target: CCNE2, cyclin fold, Cln2 fusion (human)
Technique: yeast growth competition, sequencing
Medium: yeast
Notes: weak parent motif
Reference: not given
Reading: higher = stronger binding
Parent: WEE2 docking peptide (human); KELRQKLNFSYCE; partner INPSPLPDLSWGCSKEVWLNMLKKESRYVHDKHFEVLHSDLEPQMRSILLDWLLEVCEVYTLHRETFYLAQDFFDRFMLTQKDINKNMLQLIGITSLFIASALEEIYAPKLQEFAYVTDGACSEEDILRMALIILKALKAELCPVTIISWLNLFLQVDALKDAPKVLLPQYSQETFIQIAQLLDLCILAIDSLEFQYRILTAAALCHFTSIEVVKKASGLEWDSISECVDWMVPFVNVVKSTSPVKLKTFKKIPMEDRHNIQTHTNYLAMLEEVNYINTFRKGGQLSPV
Under “normalised enrichment score”, `KELRQKANFSYCE [L7A]` is recorded as -0.131.
`KELRQKLNFSYAE [C12A]`: “normalised enrichment score” -0.221.
`KELAQKLNFSYCE [R4A]`: “normalised enrichment score” -0.0273.
`KELRQKLNFSYCA [E13A]` — result for “normalised enrichment score”: 0.298.
For `KEARQKLNFSYCE [L3A]`, “normalised enrichment score” read 0.016.
`AELRQKLNFSYCE [K1A]`: “normalised enrichment score” -0.199.
